# Results of several laboratories.
# Protocols differ between the studies behind these lines. Several values in a cell are separate wells, animals, samples, runs or records. Numbers after ± are the reported error.
# ADRB1: Beta-1 adrenergic receptor (ADRB1, Homo sapiens, UniProt P08588)
# Chain of UniProt P08588 (whole entry, looked up): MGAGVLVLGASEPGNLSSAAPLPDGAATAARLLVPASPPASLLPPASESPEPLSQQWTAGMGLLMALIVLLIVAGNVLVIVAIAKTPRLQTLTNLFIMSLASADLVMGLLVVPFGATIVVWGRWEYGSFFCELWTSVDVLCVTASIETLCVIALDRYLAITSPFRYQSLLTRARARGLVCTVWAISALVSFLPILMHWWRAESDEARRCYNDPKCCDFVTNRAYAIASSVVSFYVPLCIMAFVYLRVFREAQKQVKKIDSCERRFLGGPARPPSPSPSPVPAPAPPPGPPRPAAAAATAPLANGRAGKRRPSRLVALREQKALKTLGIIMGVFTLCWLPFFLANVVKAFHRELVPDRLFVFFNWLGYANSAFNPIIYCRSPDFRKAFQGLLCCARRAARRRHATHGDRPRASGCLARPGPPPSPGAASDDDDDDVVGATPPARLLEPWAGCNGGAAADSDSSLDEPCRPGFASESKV
# plsY: Glycerol-3-phosphate acyltransferase (plsY, Streptococcus pneumoniae, UniProt P0A4Q0)
# Trypanothione synthetase: Trypanothione synthetase (Trypanosoma brucei brucei, UniProt Q586P2)
# Chain of UniProt P26358 (whole entry, looked up): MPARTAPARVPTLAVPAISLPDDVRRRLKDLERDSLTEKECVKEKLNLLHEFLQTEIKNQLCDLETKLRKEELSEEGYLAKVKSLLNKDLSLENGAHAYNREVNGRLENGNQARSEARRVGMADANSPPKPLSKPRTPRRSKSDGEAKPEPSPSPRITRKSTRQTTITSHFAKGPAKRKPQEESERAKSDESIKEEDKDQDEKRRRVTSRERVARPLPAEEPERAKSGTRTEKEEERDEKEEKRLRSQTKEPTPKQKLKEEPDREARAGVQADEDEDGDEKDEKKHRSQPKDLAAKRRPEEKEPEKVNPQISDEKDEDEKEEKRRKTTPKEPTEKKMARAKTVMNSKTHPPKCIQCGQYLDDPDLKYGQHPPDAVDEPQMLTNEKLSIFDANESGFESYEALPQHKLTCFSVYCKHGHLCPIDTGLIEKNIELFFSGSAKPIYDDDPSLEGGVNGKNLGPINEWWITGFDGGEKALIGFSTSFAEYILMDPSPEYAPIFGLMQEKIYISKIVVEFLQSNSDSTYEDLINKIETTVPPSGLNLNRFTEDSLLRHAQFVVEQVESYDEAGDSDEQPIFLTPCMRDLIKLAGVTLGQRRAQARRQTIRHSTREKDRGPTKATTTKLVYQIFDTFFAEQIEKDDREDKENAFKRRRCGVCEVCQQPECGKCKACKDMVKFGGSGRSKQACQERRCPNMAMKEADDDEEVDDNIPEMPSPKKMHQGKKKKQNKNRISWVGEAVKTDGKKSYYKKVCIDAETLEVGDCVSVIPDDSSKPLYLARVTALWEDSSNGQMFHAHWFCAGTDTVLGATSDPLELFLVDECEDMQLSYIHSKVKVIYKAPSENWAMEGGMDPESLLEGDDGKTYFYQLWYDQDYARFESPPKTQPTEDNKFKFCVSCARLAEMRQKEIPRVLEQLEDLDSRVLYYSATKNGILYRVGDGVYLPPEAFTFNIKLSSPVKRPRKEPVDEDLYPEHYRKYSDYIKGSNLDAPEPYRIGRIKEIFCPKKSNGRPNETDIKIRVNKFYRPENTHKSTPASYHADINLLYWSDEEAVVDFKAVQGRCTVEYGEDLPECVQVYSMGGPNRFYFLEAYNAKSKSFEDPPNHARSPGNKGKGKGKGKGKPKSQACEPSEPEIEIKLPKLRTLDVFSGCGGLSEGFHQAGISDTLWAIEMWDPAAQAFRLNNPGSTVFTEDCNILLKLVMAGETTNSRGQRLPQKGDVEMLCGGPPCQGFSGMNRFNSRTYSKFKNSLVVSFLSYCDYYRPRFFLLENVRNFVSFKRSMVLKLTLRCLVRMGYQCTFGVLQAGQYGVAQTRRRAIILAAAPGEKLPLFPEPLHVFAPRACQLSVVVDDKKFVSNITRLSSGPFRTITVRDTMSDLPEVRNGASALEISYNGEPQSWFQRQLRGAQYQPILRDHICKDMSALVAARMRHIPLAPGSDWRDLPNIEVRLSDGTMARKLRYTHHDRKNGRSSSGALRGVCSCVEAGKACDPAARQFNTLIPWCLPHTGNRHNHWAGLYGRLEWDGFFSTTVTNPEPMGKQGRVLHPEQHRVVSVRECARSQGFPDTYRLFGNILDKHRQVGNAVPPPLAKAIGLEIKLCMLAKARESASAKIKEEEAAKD
# Chain of UniProt Q13233 (whole entry, looked up): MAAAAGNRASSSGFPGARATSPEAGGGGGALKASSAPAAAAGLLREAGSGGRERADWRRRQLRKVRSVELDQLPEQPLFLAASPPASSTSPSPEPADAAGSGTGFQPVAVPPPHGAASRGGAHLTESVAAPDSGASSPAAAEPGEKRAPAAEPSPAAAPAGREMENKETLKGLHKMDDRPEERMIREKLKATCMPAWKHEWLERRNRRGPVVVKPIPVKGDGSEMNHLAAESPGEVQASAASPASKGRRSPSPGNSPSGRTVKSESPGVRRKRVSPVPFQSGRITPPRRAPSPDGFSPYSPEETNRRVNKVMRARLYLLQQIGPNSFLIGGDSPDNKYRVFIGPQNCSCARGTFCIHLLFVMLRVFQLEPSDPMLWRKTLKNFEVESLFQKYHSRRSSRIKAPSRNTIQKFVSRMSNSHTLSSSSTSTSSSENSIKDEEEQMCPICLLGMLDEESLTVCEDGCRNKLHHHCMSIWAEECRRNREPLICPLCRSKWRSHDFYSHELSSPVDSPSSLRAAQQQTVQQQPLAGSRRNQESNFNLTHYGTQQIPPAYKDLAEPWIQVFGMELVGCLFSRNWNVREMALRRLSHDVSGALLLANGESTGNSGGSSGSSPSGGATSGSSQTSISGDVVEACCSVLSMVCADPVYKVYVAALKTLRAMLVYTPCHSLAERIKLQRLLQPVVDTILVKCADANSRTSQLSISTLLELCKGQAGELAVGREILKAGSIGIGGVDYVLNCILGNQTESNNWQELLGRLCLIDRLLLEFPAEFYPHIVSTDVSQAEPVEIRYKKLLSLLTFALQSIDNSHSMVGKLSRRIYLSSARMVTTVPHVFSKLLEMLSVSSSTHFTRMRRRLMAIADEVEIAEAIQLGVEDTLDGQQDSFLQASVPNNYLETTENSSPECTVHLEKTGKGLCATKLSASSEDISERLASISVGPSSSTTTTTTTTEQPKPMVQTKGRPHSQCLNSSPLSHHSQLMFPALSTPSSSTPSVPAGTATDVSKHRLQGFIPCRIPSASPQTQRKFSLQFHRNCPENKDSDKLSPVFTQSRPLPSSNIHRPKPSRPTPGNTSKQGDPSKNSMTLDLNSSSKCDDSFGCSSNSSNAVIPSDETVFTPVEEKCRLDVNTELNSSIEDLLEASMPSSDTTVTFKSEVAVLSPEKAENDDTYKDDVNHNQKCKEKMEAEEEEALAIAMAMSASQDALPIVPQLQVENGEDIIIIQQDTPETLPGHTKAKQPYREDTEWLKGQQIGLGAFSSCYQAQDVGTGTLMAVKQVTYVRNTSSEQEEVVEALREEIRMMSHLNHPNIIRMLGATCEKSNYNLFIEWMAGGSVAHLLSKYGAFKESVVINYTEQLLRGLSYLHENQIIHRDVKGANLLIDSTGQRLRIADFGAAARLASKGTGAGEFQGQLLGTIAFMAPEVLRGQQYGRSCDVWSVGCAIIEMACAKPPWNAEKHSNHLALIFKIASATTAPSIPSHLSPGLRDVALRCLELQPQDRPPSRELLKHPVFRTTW
# Chain of UniProt P23439 (whole entry, looked up): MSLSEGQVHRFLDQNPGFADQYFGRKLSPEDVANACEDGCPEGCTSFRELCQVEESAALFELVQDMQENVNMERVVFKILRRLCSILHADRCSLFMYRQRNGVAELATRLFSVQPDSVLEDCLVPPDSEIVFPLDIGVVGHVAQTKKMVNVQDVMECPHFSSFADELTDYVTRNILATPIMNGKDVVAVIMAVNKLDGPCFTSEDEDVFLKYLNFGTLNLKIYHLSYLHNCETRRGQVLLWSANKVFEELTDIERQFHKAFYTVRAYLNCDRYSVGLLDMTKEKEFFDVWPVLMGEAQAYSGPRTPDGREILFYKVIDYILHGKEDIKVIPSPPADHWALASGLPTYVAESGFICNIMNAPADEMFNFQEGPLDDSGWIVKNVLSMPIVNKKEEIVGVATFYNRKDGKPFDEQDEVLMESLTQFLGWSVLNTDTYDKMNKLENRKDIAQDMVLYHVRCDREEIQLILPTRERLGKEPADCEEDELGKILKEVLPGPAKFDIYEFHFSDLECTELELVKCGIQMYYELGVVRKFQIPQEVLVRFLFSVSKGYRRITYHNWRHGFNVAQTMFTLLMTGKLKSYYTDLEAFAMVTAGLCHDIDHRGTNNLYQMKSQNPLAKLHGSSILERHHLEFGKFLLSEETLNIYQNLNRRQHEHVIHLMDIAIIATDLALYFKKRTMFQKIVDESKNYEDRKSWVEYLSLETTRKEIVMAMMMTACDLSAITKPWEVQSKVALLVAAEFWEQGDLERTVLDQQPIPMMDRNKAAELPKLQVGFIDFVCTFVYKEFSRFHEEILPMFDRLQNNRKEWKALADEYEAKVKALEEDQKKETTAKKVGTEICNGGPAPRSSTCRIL
# Chain of UniProt P06239 (whole entry, looked up): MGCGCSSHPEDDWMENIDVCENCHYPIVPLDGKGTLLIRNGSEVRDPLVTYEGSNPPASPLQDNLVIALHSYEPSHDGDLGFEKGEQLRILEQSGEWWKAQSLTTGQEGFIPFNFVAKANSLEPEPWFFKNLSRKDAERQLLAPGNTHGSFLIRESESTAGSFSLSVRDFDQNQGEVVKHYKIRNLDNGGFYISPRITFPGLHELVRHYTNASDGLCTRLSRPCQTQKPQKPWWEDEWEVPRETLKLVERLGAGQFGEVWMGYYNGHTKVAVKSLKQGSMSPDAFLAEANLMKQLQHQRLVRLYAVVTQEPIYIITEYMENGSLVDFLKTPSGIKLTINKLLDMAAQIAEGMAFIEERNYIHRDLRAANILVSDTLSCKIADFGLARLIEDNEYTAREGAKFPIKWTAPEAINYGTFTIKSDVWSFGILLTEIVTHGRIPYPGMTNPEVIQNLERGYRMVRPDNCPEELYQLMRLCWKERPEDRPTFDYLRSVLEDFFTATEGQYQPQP
SMILES,target,assay,test system,setting,inhibition
C[C@@H]1N=C(c2ccccc2F)c2cc(Br)ccc2-n2cnc(C(=O)O)c21,sigma receptor 2,binding,,10 µM,-19.5 ± 30.4%
C[C@H](C(=O)N[C@H]1COc2ccccc2[C@@H]1S(C)(=O)=O)c1ccc(F)cc1,"PDE6A/PDE6B (Bos taurus, UniProt P11541+P23439)",enzyme activity,,"10 µM, Eurofins selectivity panel",-6%
CN1CCN(c2cc(-c3ccncc3)c(-c3ccc4ccccc4c3)nn2)CC1,ADRB1,"antagonist, FLIPR",,10 µM,11.4%
CCCCCCCC/C=C\CCCCCCCC(=O)C(F)(F)P(=O)(O)O,plsY,inhibitor,,200 µM,100%
COc1cc(Nc2ncc(F)c(Nc3ccc4c(n3)NC(=O)C(C)(C)O4)n2)cc(OC)c1OC,"Mitogen-activated protein kinase kinase kinase 1 (MAP3K1, Homo sapiens, UniProt Q13233)",KINOMEscan,,10 µM,37%
COCc1c(-c2cc3cc(C)cc(OC)c3s2)c2c(N)ncnn2c1CN1CCNC(=O)C1,NMDA receptor glycine site,radioligand binding,,10 µM,-4%
CCCCCCCCCCCCCCCC(=O)CP(=O)(O)O,plsY,inhibitor,,200 µM,28%
O=C(COC(=O)c1cccnc1N1CCCC1)c1cc(F)ccc1F,Trypanothione synthetase,"enzyme activity, BIOMOL Green phosphate release",,25 µM,34.1 ± 6%
COc1cc2c(NC3CCN(C)CC3)cc(-c3ccc(C)o3)nc2cc1OCCCN1CCCC1,"DNA (cytosine-5)-methyltransferase 1 (DNMT1, Homo sapiens, UniProt P26358)",enzyme activity,,33330 nM,97.1%
O=C(Nc1cnccc1Cl)N1CCN(Cc2ccc3c(c2)OC(F)(F)O3)CC1,"Monoacylglycerol lipase ABHD6 (Abhd6, Rattus norvegicus, UniProt Q5XI64)","probe labelling, inhibitor, competitive ABPP with azido-FP probe, measured: ABHD6",rat brain soluble fraction,1 µM,4.7%
CN(CCN1CCC(OC(=O)Nc2ccccc2-c2ccccc2)CC1)C(=O)c1ccc(CN2CCC(C(N)=O)CC2)cc1,"phosphodiesterase IV, human",enzyme activity,,1 µM,-4%
CN1C(=O)N(CC(=O)NCc2ccc(Oc3ccc(F)cc3)cc2)C(=O)C12CCCCC2,Trypanothione synthetase,"enzyme activity, BIOMOL Green phosphate release",,25 µM,15.5 ± 9.4%
CC(C)(C)C(O)(CCc1ccc(Cl)cc1)Cn1cncn1 (stereo not shown),"Palmitoyl-protein thioesterase 1 (Homo sapiens, UniProt P50897)",Spectrum Collection screen,,"concentration not given, together with: substrate 20 µM",69%
O=C(O)c1nccnc1NC(=O)c1cccc2ccccc12,"panD (Mycobacteroides abscessus, UniProt B1MGV7, Y127A)",,,200 µM,81.8%
Cc1ccc2c(CC(=O)N3CCC(C(N)=O)C3)coc2c1C (stereo not shown),Trypanothione synthetase,"enzyme activity, BIOMOL Green phosphate release",,25 µM,37.1 ± 13.9%
Cc1ncc(C)n2nc(/C=C/c3nc(N4CCCC4)cc(N4CCOCC4)n3)nc12,AMPA receptor,binding,,10 µM,-8%
CC(C)N1CCC[C@H]1CNC(=O)c1cn(C2CCCC2)c(=O)c2c1c1ccccc1n2C,"GABAA receptor benzodiazepine site, rat brain",radioligand binding,,10 µM,12%
CN1CCC(c2cc(-c3ccncc3)c(-c3ccc(F)cc3)[nH]2)CC1,"cGMP-dependent protein kinase (PKG, Plasmodium falciparum, UniProt Q8I719)",,,10 µM,104 ± 2%
O=C(NC(Cc1c[nH]c2ccccc12)P(=O)(Oc1ccccc1)Oc1ccccc1)OCc1ccccc1 (racemic),"Structural polyprotein, capsid protease (O'nyong-nyong virus, UniProt P22056)","protease activity, irreversible covalent inhibitor",,"100 µM, 30 °C, CP Δ2 construct, 1% DMSO, together with: H-Gly-Glu-Ser-Glu-Val-Trp-ACC, 50 µM",53.7 ± 3.7%
FC(F)(F)c1cccc(Nc2nc(NCCOc3ccccc3)nc3[nH]cnc23)c1,"Serine/threonine-protein kinase MARK2 (MARK2, Homo sapiens, UniProt Q7KZI7)",Z'-LYTE or Adapta,,5 µM,6%
CCCCCC/C=C\CCCCCCCCCC(=O)NP(=O)(O)O,plsY,inhibitor,,200 µM,93%
CN(C(=O)n1cnc(-c2ccc[n+]([O-])c2)c1)C1CCCCC1,somatostatin sst4 receptor,,,concentration not given,3% and -3%
CCCCCCCC/C=C\CCCCCCCCNC(=O)CP(=O)(O)O,plsY,inhibitor,,200 µM,49%
O=C(Nc1cccnn1)N1CCC(=Cc2cccc(Oc3ccc(C(F)(F)F)cn3)c2)CC1,"Vasopressin V1b receptor (AVPR1B, Homo sapiens, UniProt P47901)",binding,,"10 µM, together with: [3H][Arg8]vasopressin",0%
Cc1c(C(=O)OCC2CCCN2C(N)=O)oc2c(Cl)cccc12 (stereo not shown),Trypanothione synthetase,"enzyme activity, BIOMOL Green phosphate release",,25 µM,24.3 ± 2.4%
O=c1ccc2ccccc2o1,"Tyrosine-protein kinase Lck (LCK, Homo sapiens, UniProt P06239)",enzyme activity,,"10 µM, SafetyScreen44",-10.2%
Cn1cccc1-c1cccnc1,ADRB1,binding,,50 µM,17.9%
CN1CCN(c2nc(N)c3ccccc3n2)CC1,glycine receptor (rat),"binding, radioligand binding",,0.1 µM,4.1%
CCCCCC/C=C\CCCCCCCCCC(=O)CP(=O)(O)O,plsY,inhibitor,,200 µM,98%
O=C(Nc1cccnn1)N1CCN([C@@H]2CCOc3cc(C(F)(F)F)ccc32)CC1,catechol-O-methyltransferase,enzyme activity,,20 µM,3%
COc1ccc(N2C(=O)N(c3c(C)cccc3Cl)Cc3cnc(Nc4ccc(C5CCN(C)CC5)cc4OC)nc32)nc1,"Serine/threonine-protein kinase 16 (STK16, Homo sapiens, UniProt O75716)",kinase activity,,0.5 µM,-1.84%

# Some of these lines once more:
SMILES,target,assay,test system,setting,inhibition
CCCCCCCCCCCCCCCC(=O)CP(=O)(O)O,plsY,inhibitor,,200 µM,28%
O=C(Nc1cnccc1Cl)N1CCN(Cc2ccc3c(c2)OC(F)(F)O3)CC1,"Monoacylglycerol lipase ABHD6 (Abhd6, Rattus norvegicus, UniProt Q5XI64)","probe labelling, inhibitor, competitive ABPP with azido-FP probe, measured: ABHD6",rat brain soluble fraction,1 µM,4.7%
Cc1c(C(=O)OCC2CCCN2C(N)=O)oc2c(Cl)cccc12 (stereo not shown),Trypanothione synthetase,"enzyme activity, BIOMOL Green phosphate release",,25 µM,24.3 ± 2.4%
